Measurements from different studies.
“And” joins repeats or separate records; there may be more than shown. Numbers after ± are the reported error.

Substance = CC1=C(C(=O)Nc2ccccc2)C(c2ccccc2Cl)NC(=S)N1 (stereo not shown); test = carotid artery cannulation; test system = male Wistar rats, anaesthetised; conditions = 0.3 mL, 3 h; measurement = mean arterial pressure; result = 20.9 ± 0.64 mm Hg
Substance = CC(=O)N[C@@H](CC(C)C)C(=O)N1CCC[C@H]1C(=O)N[C@@H](Cc1ccc(O)cc1)C(=O)N1CCC[C@H]1C(=O)N[C@@H](CCCCN)C(N)=O; test = DSC; test system = SOPC/cholesterol 6/4 bilayers; conditions = 10 mol%, pH 7.40; measurement = transition enthalpy; result = 0.3 kcal/mol
Substance = C[C@@H]1O[C@@H](O[C@H]2C[C@@H](O)[C@]3(CO)[C@H]4[C@H](O)C[C@]5(C)[C@@H](C6COC(=O)C6)CC[C@]5(O)[C@@H]4CC[C@]3(O)C2)[C@H](O)[C@H](O)[C@H]1O (stereo partly shown); test = Na/K pump current, inhibitor, whole-cell patch clamp; test system = Cavia porcellus; conditions = pH 7.4, 36 °C, high-affinity component; measurement = Kd; result = 750 nM
Substance = c1ccc2c(c1)cc1ccc3cccc4ccc2c1c34; test = adrenal haemorrhage prevention; test system = rat; conditions = oral, with: 7,12-DMBA 5 mg i.v.; measurement = minimal protective dose; result = 0.5 mg
Substance = CC(=O)O[C@H]1C[C@H](O[C@H]2[C@@H](O)C[C@H](O[C@H]3[C@@H](O)C[C@H](O[C@H]4CC[C@@]5(C)[C@H](CC[C@@H]6[C@@H]5C[C@@H](O)[C@]5(C)[C@@H](C7=CC(=O)OC7)CC[C@]65O)C4)O[C@@H]3C)O[C@@H]2C)O[C@H](C)[C@H]1O[C@@H]1O[C@H](CO)[C@@H](O)[C@H](O)[C@H]1O; test = echocardiography; test system = ICR mice, doxorubicin heart failure; conditions = intraperitoneal, 150 µg/kg daily, day 28; measurement = LV fractional shortening; result = increased
Substance = CC(C)C[C@@H]1NC(=O)[C@@H](Cc2c[nH]c3ccccc23)NC(=O)[C@H](CCCCN)NC(=O)[C@@H](Cc2c[nH]cn2)NC(=O)[C@H](CO)NC(=O)[C@@H](Cc2c[nH]cn2)NC(=O)[C@H](CCCCN)NC(=O)[C@@H](Cc2c[nH]c3ccccc23)NC1=O; test = 16S rRNA sequencing, refers to: gut microbiota; test system = LDLr-/- mice, Western diet, feces; conditions = oral, 35 mg/kg daily; how to read = reference: vehicle; measurement = time to increased Bacteroidetes/Firmicutes ratio; result = ≤ 2 weeks
Substance = CC(C)C[C@H](NC(=O)[C@H](Cc1ccc(O)cc1)NC(=O)CNC(=O)[C@H](CC(C)C)NC(=O)[C@@H]1CCCN1C(=O)CCCc1cn(CC(=O)NC(COCc2cn(CCO[C@H]3O[C@H](CO)[C@@H](O)[C@H](O)[C@@H]3O)nn2)(COCc2cn(CCO[C@H]3O[C@H](CO)[C@@H](O)[C@H](O)[C@@H]3O)nn2)COCc2cn(CCO[C@H]3O[C@H](CO)[C@@H](O)[C@H](O)[C@@H]3O)nn2)nn1)C(=O)NCC(=O)NCCCC[C@H](NC(=O)[C@H](CCCCN)NC(=O)[C@H](CC(=O)O)NC(=O)[C@@H]1CCCN1C(=O)[C@H](CCCNC(=N)N)NC(=O)[C@H](Cc1c[nH]cn1)NC(=O)[C@H](Cc1c[nH]c2ccccc12)NC(=O)[C@H](CO)NC(=O)[C@H](C)NC(=O)CNC(=O)[C@@H](N)CC(C)C)C(=O)N[C@@H](CC(C)C)C(=O)N[C@H](C(=O)N[C@@H](Cc1ccccc1)C(=O)N[C@@H](Cc1ccccc1)C(=O)N[C@@H](C)C(=O)N[C@@H](CCC(=O)O)C(=O)N[C@@H](CS)C(=O)NCC(=O)O)C(C)C; test system = C57BL/6 mouse, MB49-Luc tumour; conditions = intravenous, 100 µL, five doses, 500 µM, 18 days; measurement = tumour volume; result = 591 ± 197 mm³
Substance = Cc1ccc2cc3c(ccc4ccccc43)c3c2c1CC3; test = adrenal haemorrhage prevention; test system = rat; conditions = oral, with: 7,12-DMBA 5 mg i.v.; measurement = minimal protective dose; result = 0.25 mg
Substance = C[C@@H]1NC(C)(C)CO[C@@]1(O)c1cccc(Br)c1; test = nicotine antinociception blockade, antagonist, tail-flick test; test system = mouse; conditions = 15 min pretreatment, with: nicotine 2.5 mg/kg subcutaneous; measurement = ED50; result = 0.16 mg/kg
Substance = COc1ccc(/C=C\c2cc(OC)c(OC)c(OC)c2)cc1O; test = tubulin polymerisation, inhibitor, absorbance; conditions = 20 min; measurement = IC50; result = 540 nM
Substance = Cc1cccc(Cn2cc(COCc3cnc(C)c(O)c3CO)nn2)c1; test = Cu2+ chelation; conditions = 100 µM, 30 min, 37 °C, with: Cu2+ 100 µM; measurement = absorbance change; result = 0%
Substance = CC[C@H](C)[C@H](NC(=O)CNC(=O)[C@H](Cc1c[nH]c2ccccc12)NC(=O)CNC(C)=O)C(=O)N[C@@H](CCCCN)C(N)=O; test = DSC; test system = SOPC/cholesterol 7/3 bilayers; conditions = 10 mol%, pH 7.40; measurement = transition enthalpy; result = 0.8 kcal/mol
Substance = NNc1ncc(S(=O)(=O)NC(=S)Nc2ccccc2)c(=O)[nH]1; test = oral glucose tolerance test; test system = HFD/STZ type 2 diabetic rat; conditions = oral, 10 mg/kg, with: glucose 1 g/kg; measurement = glucose AUC; result = 601 ± 71.5 mg·min/dL
Substance = CSCC[C@H](NC(=O)[C@H](CC(C)C)NC(=O)[C@H](C)N)C(=O)N[C@@H](CC(C)C)C(=O)N[C@@H](CCCNC(=N)N)C(=O)N[C@@H](CC(C)C)C(=O)N[C@@H](CC(C)C)C(=O)N[C@@H](CCCNC(=N)N)C(=O)N[C@H](C(=O)O)[C@@H](C)O; test system = PBMC, human, HSV-1 seropositive, HLA-A*0201+; conditions = 10 µg/mL, 72 h; measurement = IFN-γ+ CD8+ T cells; result = ≤ 4.1%
Substance = bovine insulin; test system = Sprague-Dawley rat, fasted; conditions = ileal loop, 50 IU/kg; measurement = glucose reduction; result = 12.6 ± 9.85%
Substance = atrial natriuretic peptide; test system = rat high-fat streptozotocin diabetes; conditions = subcutaneous pump, 2 pmol/kg/min, 6 weeks, with: sacubitril 18 mg/kg/day oral; measurement = fractional shortening; result = ~50%
Substance = CCN[C@@H]1C[C@H](N)[C@@H](O[C@H]2OC(CN)=CC[C@H]2N)[C@H](O)[C@H]1O[C@H]1OC[C@](C)(O)[C@H](NC)[C@H]1O; test = [14C]-phenylalanine incorporation, inhibitor, (UUU)12-directed cell-free translation; test system = M. smegmatis 70S ribosomes, human cytosolic hybrid decoding site; conditions = 60 min, 37 °C; measurement = IC50; result = > 500000 nM
Substance = O=C1c2ccccc2-c2ccc([N+](=O)[O-])c3cccc1c23; test = developmental toxicity; test system = zebrafish (Danio rerio) embryos; conditions = 6 to 120 hpf; measurement = EC50; result = 200 nM
Substance = O=C(CCCCCCC(=O)Nc1ccccc1)NO; test system = human, liver metastasis biopsy; conditions = oral, 1700 mg once daily; how to read = reference: β-actin; measurement = thymidylate synthase mRNA level; result = 0.13 and 0.05
Substance = C=C[C@H]1[C@H]2CCC[C@]1(c1cccc(C(N)=O)c1)CCN2CCc1ccccc1; test = pain-depressed locomotion; test system = mice; conditions = subcutaneous, 18 mg/kg, with: intraperitoneal lactic acid; measurement = duration of antinociception; result = 60 min
Substance = corticotropin-releasing factor (human/rat); test = refers to: CREB phospho-Ser133; test system = hippocampal pyramidal neurons, Sprague-Dawley rat pups; conditions = 40 nM, 15 min; measurement = responding neurons; result = ~85%
Substance = QPRWSYYDSFSAV; test = IFN-γ release, ELISPOT; test system = peptide, splenocytes, BALB/c mouse immunised; measurement = EC50; result = < 0.1 nM
Substance = CC(=O)N[C@@H](CC(C)C)C(=O)NCC(=O)N[C@@H](Cc1ccc(O)cc1)C(=O)NCC(=O)N[C@@H](CCCCN)C(N)=O; test = DSC; test system = SOPC/cholesterol 6/4 bilayers; conditions = 5 mol%, pH 7.40; measurement = transition enthalpy; result = 0.2 kcal/mol
Substance = N=C(N)NCCc1ccc([18F])c(O)c1; test system = rat, isolated working heart; conditions = 10 min infusion, with: 54 µM corticosterone; measurement = neuronal uptake rate; result = 0.68 mL/min/g wet weight
Substance = CC1=C(C(=O)Nc2ccccc2)C(c2ccccc2C#N)NC(=S)N1 (stereo not shown); test = carotid artery cannulation; test system = male Wistar rats, anaesthetised; conditions = 0.3 mL, 3 h; measurement = mean arterial pressure; result = 20.7 ± 0.68 mm Hg
Substance = Oc1cc2ccccc2c2ccccc12; test system = zebrafish embryo; measurement = EC50; result = 500 to 5500 nM
Substance = CC1=C(C(=O)Nc2ccc(C)cc2)C(c2ccccc2Cl)NC(=S)N1 (stereo not shown); test = carotid artery cannulation; test system = male Wistar rats, anaesthetised; conditions = 0.3 mL, 3 h; measurement = mean arterial pressure; result = 22.8 ± 1.13 mm Hg
Substance = O=c1c(I)ccc2n1C[C@@H]1CNC[C@H]2C1; test system = α7 null mutant mice; conditions = intraperitoneal, 0.2 mg/kg, rectal temperature; how to read = reference: wild-type mice; measurement = hypothermia; result = no effect

Excerpt of the above:
Substance = bovine insulin; test system = Sprague-Dawley rat, fasted; conditions = ileal loop, 50 IU/kg; measurement = glucose reduction; result = 12.6 ± 9.85%
Substance = atrial natriuretic peptide; test system = rat high-fat streptozotocin diabetes; conditions = subcutaneous pump, 2 pmol/kg/min, 6 weeks, with: sacubitril 18 mg/kg/day oral; measurement = fractional shortening; result = ~50%
Substance = CCN[C@@H]1C[C@H](N)[C@@H](O[C@H]2OC(CN)=CC[C@H]2N)[C@H](O)[C@H]1O[C@H]1OC[C@](C)(O)[C@H](NC)[C@H]1O; test = [14C]-phenylalanine incorporation, inhibitor, (UUU)12-directed cell-free translation; test system = M. smegmatis 70S ribosomes, human cytosolic hybrid decoding site; conditions = 60 min, 37 °C; measurement = IC50; result = > 500000 nM
Substance = O=C1c2ccccc2-c2ccc([N+](=O)[O-])c3cccc1c23; test = developmental toxicity; test system = zebrafish (Danio rerio) embryos; conditions = 6 to 120 hpf; measurement = EC50; result = 200 nM
